# Measurements from different studies.
# Compare with care: the assays were run in different laboratories. “And” joins repeats or separate records; there may be more than shown. Numbers after ± are the reported error.
# Nuclear receptor subfamily 2 group C member 2 ligand-binding domain: Nuclear receptor subfamily 2 group C member 2, ligand-binding domain (Homo sapiens, UniProt P49116)
# Sequence of UniProt P49116 (whole entry, looked up): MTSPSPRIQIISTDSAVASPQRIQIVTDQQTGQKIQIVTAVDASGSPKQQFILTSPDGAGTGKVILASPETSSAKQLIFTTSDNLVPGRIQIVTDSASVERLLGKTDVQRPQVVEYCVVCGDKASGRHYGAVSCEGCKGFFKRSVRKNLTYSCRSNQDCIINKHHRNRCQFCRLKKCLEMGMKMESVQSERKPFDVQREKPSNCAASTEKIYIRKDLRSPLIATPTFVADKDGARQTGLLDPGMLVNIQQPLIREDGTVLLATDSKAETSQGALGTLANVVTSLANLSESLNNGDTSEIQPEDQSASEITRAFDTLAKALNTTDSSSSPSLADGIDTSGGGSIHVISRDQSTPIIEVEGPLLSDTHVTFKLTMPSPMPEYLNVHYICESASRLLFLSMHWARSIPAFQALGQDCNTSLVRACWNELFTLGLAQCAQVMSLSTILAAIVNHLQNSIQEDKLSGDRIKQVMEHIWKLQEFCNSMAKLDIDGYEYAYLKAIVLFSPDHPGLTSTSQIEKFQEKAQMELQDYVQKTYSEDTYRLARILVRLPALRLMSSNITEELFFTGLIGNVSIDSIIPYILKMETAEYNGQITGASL
# GUK1: GUK1 (Homo sapiens, UniProt Q16774)
# Sequence of UniProt Q16774 (whole entry, looked up): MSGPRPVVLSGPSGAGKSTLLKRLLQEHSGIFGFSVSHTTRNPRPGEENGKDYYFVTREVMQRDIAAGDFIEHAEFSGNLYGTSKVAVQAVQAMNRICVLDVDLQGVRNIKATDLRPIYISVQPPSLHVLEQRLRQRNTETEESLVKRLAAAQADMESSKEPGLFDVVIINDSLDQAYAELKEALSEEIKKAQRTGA
# XPO1: Exportin-1 (XPO1, Homo sapiens, UniProt O14980)
# Sequence of UniProt P27361 (whole entry, looked up): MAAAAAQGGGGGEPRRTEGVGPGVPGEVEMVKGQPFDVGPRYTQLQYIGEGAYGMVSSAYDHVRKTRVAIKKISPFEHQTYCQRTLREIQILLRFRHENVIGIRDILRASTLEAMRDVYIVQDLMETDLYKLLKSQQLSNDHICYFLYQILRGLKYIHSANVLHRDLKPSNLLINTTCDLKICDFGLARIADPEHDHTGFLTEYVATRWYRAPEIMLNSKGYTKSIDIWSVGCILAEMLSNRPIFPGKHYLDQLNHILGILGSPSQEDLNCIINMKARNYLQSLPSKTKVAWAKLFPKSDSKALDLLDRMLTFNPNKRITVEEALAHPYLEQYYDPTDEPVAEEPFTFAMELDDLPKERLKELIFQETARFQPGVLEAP
# Sequence of UniProt P15924 (whole entry, looked up): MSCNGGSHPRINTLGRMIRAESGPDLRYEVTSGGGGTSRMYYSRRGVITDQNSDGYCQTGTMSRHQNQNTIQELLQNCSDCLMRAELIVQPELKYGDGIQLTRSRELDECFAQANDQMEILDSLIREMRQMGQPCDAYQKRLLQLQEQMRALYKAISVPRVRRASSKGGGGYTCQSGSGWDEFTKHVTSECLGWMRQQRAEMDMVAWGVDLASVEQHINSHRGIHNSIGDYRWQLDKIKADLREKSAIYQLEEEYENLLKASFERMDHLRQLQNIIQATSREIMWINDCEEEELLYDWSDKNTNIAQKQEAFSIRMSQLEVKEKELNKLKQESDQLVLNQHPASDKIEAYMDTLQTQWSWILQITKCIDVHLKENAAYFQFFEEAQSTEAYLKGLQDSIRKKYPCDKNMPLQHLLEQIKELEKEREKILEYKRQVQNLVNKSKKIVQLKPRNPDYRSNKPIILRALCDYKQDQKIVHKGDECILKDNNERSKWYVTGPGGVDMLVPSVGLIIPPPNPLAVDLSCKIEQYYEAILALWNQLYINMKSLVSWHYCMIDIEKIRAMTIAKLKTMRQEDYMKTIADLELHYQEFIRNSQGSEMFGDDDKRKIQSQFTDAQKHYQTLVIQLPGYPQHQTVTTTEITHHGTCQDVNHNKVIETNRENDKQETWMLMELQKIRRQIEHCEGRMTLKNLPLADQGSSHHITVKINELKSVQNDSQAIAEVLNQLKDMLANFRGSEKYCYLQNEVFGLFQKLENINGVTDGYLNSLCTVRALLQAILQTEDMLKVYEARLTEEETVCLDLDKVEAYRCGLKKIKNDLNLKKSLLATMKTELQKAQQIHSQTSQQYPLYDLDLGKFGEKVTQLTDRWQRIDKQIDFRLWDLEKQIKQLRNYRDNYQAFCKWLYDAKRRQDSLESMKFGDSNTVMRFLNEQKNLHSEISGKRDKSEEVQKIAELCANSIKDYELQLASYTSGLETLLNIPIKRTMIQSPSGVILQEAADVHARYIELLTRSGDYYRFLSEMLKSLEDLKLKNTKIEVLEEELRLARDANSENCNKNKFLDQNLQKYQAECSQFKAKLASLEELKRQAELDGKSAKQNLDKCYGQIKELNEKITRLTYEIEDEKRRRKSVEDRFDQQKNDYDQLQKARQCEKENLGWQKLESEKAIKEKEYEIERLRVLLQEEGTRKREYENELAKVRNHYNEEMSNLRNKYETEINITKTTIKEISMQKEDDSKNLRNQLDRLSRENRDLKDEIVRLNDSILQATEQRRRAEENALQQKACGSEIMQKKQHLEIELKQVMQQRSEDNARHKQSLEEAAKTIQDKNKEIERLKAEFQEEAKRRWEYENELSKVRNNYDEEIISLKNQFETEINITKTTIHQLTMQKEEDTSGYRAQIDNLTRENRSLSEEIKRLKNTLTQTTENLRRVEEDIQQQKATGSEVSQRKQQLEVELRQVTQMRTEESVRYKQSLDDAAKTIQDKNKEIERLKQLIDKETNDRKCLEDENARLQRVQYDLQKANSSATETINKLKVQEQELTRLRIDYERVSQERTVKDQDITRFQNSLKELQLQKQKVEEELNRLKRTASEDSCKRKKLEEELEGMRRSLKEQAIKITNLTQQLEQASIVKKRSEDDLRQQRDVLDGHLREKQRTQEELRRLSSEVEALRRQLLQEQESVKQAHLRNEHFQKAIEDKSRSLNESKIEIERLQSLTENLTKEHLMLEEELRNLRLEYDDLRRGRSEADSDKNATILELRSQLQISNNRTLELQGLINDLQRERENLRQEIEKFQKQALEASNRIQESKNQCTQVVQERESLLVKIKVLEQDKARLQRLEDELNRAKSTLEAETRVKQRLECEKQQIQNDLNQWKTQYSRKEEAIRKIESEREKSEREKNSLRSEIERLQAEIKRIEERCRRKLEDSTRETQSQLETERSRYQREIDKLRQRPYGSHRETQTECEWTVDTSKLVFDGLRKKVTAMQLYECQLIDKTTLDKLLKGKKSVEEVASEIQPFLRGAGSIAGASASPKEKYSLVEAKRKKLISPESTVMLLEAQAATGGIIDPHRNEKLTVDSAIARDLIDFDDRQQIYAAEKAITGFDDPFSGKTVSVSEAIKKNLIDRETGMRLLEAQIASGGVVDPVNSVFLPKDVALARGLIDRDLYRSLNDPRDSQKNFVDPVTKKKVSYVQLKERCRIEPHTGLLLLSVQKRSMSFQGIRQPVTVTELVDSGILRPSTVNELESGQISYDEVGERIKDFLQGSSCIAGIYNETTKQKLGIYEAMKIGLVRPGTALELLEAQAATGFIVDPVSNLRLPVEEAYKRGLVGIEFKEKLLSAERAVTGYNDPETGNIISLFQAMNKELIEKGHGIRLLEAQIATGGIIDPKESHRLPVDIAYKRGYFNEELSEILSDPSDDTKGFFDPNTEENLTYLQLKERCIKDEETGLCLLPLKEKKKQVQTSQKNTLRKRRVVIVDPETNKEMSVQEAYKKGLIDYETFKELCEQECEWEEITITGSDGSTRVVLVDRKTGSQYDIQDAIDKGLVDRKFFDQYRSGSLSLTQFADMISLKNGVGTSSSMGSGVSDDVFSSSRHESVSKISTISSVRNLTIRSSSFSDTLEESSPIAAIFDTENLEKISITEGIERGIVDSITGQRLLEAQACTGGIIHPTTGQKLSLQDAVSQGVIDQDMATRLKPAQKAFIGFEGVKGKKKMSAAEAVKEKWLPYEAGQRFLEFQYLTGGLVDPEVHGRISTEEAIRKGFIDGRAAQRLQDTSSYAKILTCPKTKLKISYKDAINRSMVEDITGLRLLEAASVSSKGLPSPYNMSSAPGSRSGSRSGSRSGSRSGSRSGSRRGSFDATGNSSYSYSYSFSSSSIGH
# Sequence of UniProt O14980 (whole entry, looked up): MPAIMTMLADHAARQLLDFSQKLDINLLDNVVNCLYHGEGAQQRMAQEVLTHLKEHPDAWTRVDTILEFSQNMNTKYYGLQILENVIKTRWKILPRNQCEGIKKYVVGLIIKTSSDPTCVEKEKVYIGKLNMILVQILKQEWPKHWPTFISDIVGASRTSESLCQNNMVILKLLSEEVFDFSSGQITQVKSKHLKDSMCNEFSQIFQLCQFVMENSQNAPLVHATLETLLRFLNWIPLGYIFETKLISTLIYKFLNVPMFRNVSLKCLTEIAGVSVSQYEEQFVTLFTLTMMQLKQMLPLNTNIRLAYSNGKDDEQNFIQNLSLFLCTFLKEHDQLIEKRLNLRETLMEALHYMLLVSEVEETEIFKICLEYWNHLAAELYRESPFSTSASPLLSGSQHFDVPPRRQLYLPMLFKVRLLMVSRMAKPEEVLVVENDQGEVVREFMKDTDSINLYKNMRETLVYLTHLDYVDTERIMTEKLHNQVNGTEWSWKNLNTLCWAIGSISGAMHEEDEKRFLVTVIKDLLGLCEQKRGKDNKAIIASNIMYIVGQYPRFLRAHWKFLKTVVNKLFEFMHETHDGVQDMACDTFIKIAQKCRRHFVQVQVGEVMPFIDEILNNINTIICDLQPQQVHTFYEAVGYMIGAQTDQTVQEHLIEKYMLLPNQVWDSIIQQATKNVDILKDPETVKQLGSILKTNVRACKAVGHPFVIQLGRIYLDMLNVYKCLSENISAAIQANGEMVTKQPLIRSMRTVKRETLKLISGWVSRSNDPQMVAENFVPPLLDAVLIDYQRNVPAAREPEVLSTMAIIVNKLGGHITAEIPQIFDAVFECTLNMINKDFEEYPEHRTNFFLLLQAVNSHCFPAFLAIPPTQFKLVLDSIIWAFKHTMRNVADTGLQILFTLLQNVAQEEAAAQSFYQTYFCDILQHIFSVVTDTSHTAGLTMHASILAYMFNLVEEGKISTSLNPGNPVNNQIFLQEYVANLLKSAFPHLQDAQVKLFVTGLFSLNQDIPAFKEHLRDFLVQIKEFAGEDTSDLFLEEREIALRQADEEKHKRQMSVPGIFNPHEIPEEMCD
Structure (SMILES),target,assay,system,setting,scale,measurement,value
CCNC(=O)/C=C/c1cccc(Br)c1,"Sodium-dependent neutral amino acid transporter B(0)AT1 (SLC6A19, Homo sapiens, UniProt Q695T7)","inhibitor, L-[14C]leucine uptake",CHO-BC cells,"30 µM, 6 min, unit not given, added: GPNA 3 mM, JPH203 3 µM",reference: uninhibited cells,remaining transport activity,0.0746
CC(C)C[C@@H]1NC(=O)[C@H](C(C)C)NC(=O)CNC(=O)[C@H](CC(N)=O)NC(=O)[C@@H]2CCCN2C(=O)[C@H](Cc2ccc(O)cc2)NC(=O)[C@H](CCCNC(=N)N)NC(=O)[C@H](C)NC(=O)[C@@H](NC(=O)[C@H](CCCCN)NC(=O)[C@@H]2CCCN2C(=O)[C@H](CO)NC(=O)[C@H](C)NC(=O)[C@@H](N)Cc2ccc(O)cc2)CSSC[C@@H](C(=O)N[C@H](C(N)=O)[C@@H](C)O)NC(=O)[C@H](C)NC1=O,"Alpha-2-HS-glycoprotein, asialo (AHSG, Bos taurus, UniProt P12763)","binding, isothermal titration calorimetry",,"pH 7.0, 25 °C, added: asialofetuin",,-ΔG,5.04 kcal/mol
Cc1ncccc1OC[C@H]1CN(CCN2CCc3ccccc32)CCO1,"5-hydroxytryptamine receptor 4 (HTR4, Homo sapiens, UniProt Q13639)",radioligand binding,,concentration not given,,inhibition,20.3%
O=C(O)c1cc2c(c3nc4c(O)cccc4nc13)O[C@@H]1[C@H](O)c3nc4cccc(O)c4nc3C[C@H]21,"Eukaryotic translation initiation factor 4E (EIF4E, Homo sapiens, UniProt P06730)","inhibitor, m7GDP cap pull-down",,concentration not given,,cap binding,inactive
C[C@H](N)C(=O)N[C@@H](C)C(=O)N[C@H](C(=O)N[C@@H](CCCCN)C(=O)N[C@@H](CCC(N)=O)C(=O)N[C@H](C(=O)N[C@@H](C)C(=O)N[C@@H](CCCNC(=N)N)C(=O)N[C@@H](CCCCN)C(=O)N[C@@H](CO)C(=O)O)[C@@H](C)O)[C@@H](C)O,"Transcriptional regulator ATRX (ATRX, Homo sapiens, UniProt P46100, F284Y/K251R)",isothermal titration calorimetry,,"pH 7.5, 25.0 °C",,binding free energy,-5.32 kcal/mol
CCS(=O)(=O)N1CC(CC#N)(n2cc(-c3ncnc4[nH]ccc34)cn2)C1,"Alpha-1-acid glycoprotein 1 (ORM1, Homo sapiens, UniProt P02763)",van't Hoff,,"concentration not given, 293-308 K",,binding enthalpy change,-18.6 kJ/mol
Cc1n[nH]c2ccc(-c3cc(OC[C@@H](N)Cc4ccccc4)cnc3-c3ccoc3)cc12,"Serine/threonine-protein kinase CBK1 (CBK1, Candida albicans, UniProt Q5AP53)","kinase binding, competitor, MIB/MS competition, item: CBK1",Candida albicans cell lysate,10 µM,reference: DMSO,log2 fold change,-0.759
O=C(Nc1cnccc1Cl)N1CCN(Cc2ccc3c(c2)OC(F)(F)O3)CC1,"Fatty-acid amide hydrolase 1 (Faah, Mus musculus, UniProt O08914)","enzyme activity, inhibitor, ex vivo","rat, brain","oral, 8 h",,ED50,12.5 mg/kg
C#C[C@]1(O)CC[C@H]2[C@@H]3CCc4cc(O)ccc4[C@H]3CC[C@@]21C,Nuclear receptor subfamily 2 group C member 2 ligand-binding domain,SPR imaging,,600 nM,,koff,2.01e-07 s⁻¹
O=c1nc(SCc2cc(F)cc(C(F)(F)F)c2)nc(SCc2ccc3nc(Cl)ccc3c2)[nH]1,"DNA topoisomerase 2-alpha (TOP2A, Homo sapiens, UniProt P11388)",DNA relaxation,,7.8 µM,,mean relaxed DNA,99.6%
N#Cc1cc(Cn2cncc2CN2CCN(c3cccc(OC(F)(F)F)c3)C(=O)C2)ccc1Oc1ccccc1,Cryptococcus neoformans farnesyltransferase,"enzyme activity, inhibitor, fluorescence",,"added: 1 µM FPP, 0.5 µM dansylated peptide",,IC50,320 ± 100 nM
O=C1OC(c2ccccc2)=N/C1=C\c1ccc(O)cc1,"Pancreatic alpha-amylase (Homo sapiens, UniProt P04746)","inhibitor, Lineweaver-Burk",,"300 ppm, added: starch substrate",,Km,1940 µM
CCOc1ccc2ccccc2c1C(=O)N[C@@H]1C(=O)N2[C@@H]1SC(C)(C)[C@@H]2C(=O)O,Nuclear receptor subfamily 2 group C member 2 ligand-binding domain,SPR imaging,,600 nM,,koff,8.88e-07 s⁻¹
NCCCCC(=O)O,"Sodium- and chloride-dependent taurine transporter (SLC6A6, Homo sapiens, UniProt P31641, Y138A)","binding, microscale thermophoresis",,"46.3 nM, fitted curve",higher = more binding,fraction bound,0
Cc1cccc(N2CC(C(=O)O)CC2=O)c1 (centres unmarked),"S-phase kinase-associated protein 1 (SKP1, Homo sapiens, UniProt P63208)","binding, affinity selection mass spectrometry",,,reference: other proteins in batch,fold enrichment,1.06
Nc1ncnc2c1ncn2[C@@H]1O[C@H](COP(=O)(O)OP(=O)(O)OP(=O)(O)O)[C@@H](O)[C@H]1O,"ATP-sensitive inward rectifier potassium channel 1 (Rattus norvegicus, UniProt P35560)",inside-out patch clamp,"renal principal cells, rat",added: 20 µM free Mg2+,,concentration for full channel block,3 to 3.5 mM
COc1cc(C(=O)NS(=O)(=O)c2ccccc2C)ccc1Cc1cn(C)c2ccc(NC(=O)OC3CCCC3)cc12,"LRRC8A/LRRC8C (Homo sapiens, UniProt Q8IWT6+Q8TDW0)","ion current, inhibitor, whole-cell patch clamp","HCT116 LRRC8 knockout, transfected","+100 mV, LRRC8A/LRRC8C heteromer",,Hill coefficient,1.34
CC(=O)N[C@@H](COP(=O)(O)O)C(=O)N1CCC[C@H]1C(=O)N[C@H](C(=O)N[C@@H](Cc1ccccc1)C(N)=O)[C@@H](C)O,"Breast cancer type 1 susceptibility protein, tandem BRCT domains (BRCA1, Homo sapiens, UniProt P38398)","binding, isothermal titration calorimetry",,"BRCT domain, BACH1 peptide",,ΔH,-14 ± 1.1 kcal/mol
CC[C@H](C)[C@H](NC(=O)[C@H](CCC(=O)O)NC(=O)[C@H](CCC(=O)O)NC(=O)[C@@H]1CCCN1C(=O)[C@H](CC(=O)O)NC(=O)[C@H](C)NC(=O)[C@H](CCC(N)=O)NC(=O)[C@@H](NC(=O)[C@H](C)NC(=O)[C@@H](NC(=O)[C@H](CO)NC(=O)[C@@H](NC(=O)[C@H](CCCCN)NC(=O)[C@@H](N)Cc1ccc(O)cc1)[C@@H](C)O)C(C)C)[C@@H](C)O)C(=O)N[C@H](C(=O)N[C@H](C(=O)N[C@@H](CC(C)C)C(=O)N[C@@H](COP(=O)(O)O)C(=O)N[C@@H](CC(=O)O)C(=O)N[C@@H](COP(=O)(O)O)C(=O)N[C@@H](CC(=O)O)C(=O)O)C(C)C)[C@@H](C)CC,"Small ubiquitin-related modifier 1 (Homo sapiens, UniProt P63165, C52A)",isothermal titration calorimetry,,"concentration not given, pH 7.4, SUMO1 construct",,enthalpy change (ΔH),1.62 ± 0.52 kcal/mol
Nc1ncnc2c1ncn2[C@@H]1O[C@H](COP(=O)(O)OP(=O)(O)OP(=O)(O)O)[C@@H](O)[C@H]1O,GUK1,"substrate, NADH-coupled",,,,kcat,45.5 s⁻¹
O=C(O)[C@@H]1CCCN1c1ncnc2[nH]cnc12 (racemic),"YTH domain-containing protein 1 (Homo sapiens, UniProt Q96MU7)","binding, affinity selection mass spectrometry",,,reference: other proteins in batch,fold enrichment,0.87
O=C1CSC(=S)N1NC(=S)SSC(=S)NN1C(=O)CSC1=S,"Tyrosine-protein phosphatase non-receptor type 22 (PTPN22, Homo sapiens, UniProt Q9Y2R2)","inhibitor, phospho-flow cytometry",,"25 µM, added: TCR stimulation",reference: DMSO,positive cells,12.5%
CCN1CCCC1CNC(=O)c1cc(S(=O)(=O)CC)c(N)cc1OC (centres unmarked),Nuclear receptor subfamily 2 group C member 2 ligand-binding domain,SPR imaging,,600 nM,,koff,2.99e-07 s⁻¹
NC(=O)C1=CN([C@@H]2O[C@H](COP(=O)(O)OP(=O)(O)OC[C@H]3O[C@@H](n4cnc5c(N)ncnc54)[C@H](O)[C@@H]3O)[C@@H](O)[C@H]2O)C=CC1,FSP1 F15A mutant,substrate,,added: 100 µM co-substrate,,Km,8.35 ± 2.15 µM
CC(=C/C(=O)O)/C=C/C=C(\C)C1C=C2C(C)(C)CCCC2(C)O1 (centres unmarked),"Rhodopsin (RHO, Homo sapiens, UniProt P08100, P23H)","immunostaining, item: opsin",COS-7 transfected,"50.00 µM, unit not given",reference: surface over total stained cells,plasma membrane localization,0.98
c1ccc(OC[C@@H]2CN(CCN3CCc4ccccc43)CCO2)cc1,"D(1B) dopamine receptor (DRD5, Homo sapiens, UniProt P21918)",radioligand binding,,"concentration not given, added: [3H]SCH23390",,inhibition,48.2%
Nc1nc2c(ncn2[C@@H]2O[C@H](COP(=O)(O)O)[C@@H](O)[C@H]2O)c(=O)[nH]1,GUK1,"enzyme activity, NADH-coupled",,"500 µM, added: NaCl 10 mM",,reaction velocity,0.0777 µM/s and 0.0885 µM/s and 0.0838 µM/s
CCS(=O)(=O)c1nc(C2CC2)cc(C(F)(F)F)n1,XPO1,"nuclear export, high content imaging",HeLa Kyoto reporter,"0.0158 µM, 2 h",,cells with nuclear reporter,1.76% and 2.59% and 1.85%
Cc1ccc(N2CC(C(N)=O)CC2=O)cc1 (centres unmarked),"F-box only protein 22, with SKP1 (Homo sapiens, UniProt Q8NEZ5)","binding, affinity selection mass spectrometry",,,reference: other proteins in batch,fold enrichment,1
Nc1[nH]nc2nnc(-c3c(-c4ccccc4)nn4ccccc34)cc12,"Mitogen-activated protein kinase 3 (MAPK3, Homo sapiens, UniProt P27361)",ADP-Glo,,"1.58 µM, added: MBP substrate",,kinase activity,49.6% and 47.2% and 23.3%
CC[C@@H]1[C@H](F)C(=O)N[C@@H]1COc1nccc2cc(C(N)=O)c(OC)cc12,"RPS6KC1 (Homo sapiens, UniProt Q96S38)","ATP probe binding, KiNativ profiling, item: domain 1 ATP site",THP-1 cell lysate,0.04 mM,,inhibition,-10.9%
CC[C@@H](C)[C@@H](NC(=O)[C@@H](Cc1ccc(O)cc1)NC(=O)[C@H]1CCCN1C(=O)[C@@H](CCCNC(=N)N)NC(=O)[C@H](N)Cc1c[nH]cn1)C(=O)N[C@H](C)C(=O)N[C@H](Cc1c[nH]cn1)C(=O)N[C@H](CCCNC(=N)N)C(=O)N[C@@H](C(=O)N[C@H](Cc1ccc(O)cc1)C(=O)N[C@H](CO)C(=O)N[C@H](Cc1ccccc1)C(N)=O)C(C)C,"Transferrin receptor protein 1 (Tfrc, Mus musculus, UniProt Q62351)",flow cytometry,B16,"6 h, unit not given",reference: 0 h,surface TFRC expression,0.56
CC(Nc1nc(N2CCCC2)nc2ccccc12)c1ccccc1 (centres unmarked),XPO1,"nuclear export, high content imaging",HeLa Kyoto reporter,"31.65 µM, 2 h",,cells with nuclear reporter,4.23% and 4.97% and 4.85%
C=CC(=O)N1CCC(COCC(=O)N2CCN(c3nc(-c4cnc(N)nc4C(F)F)nc(N4CCOC[C@@H]4C)n3)CC2)CC1,"Ephrin type-A receptor 6 (EPHA6, Homo sapiens, UniProt Q9UF33)",KINOMEscan,,1 µM,,remaining binding,100%
Nc1ncnc2c1ncn2[C@@H]1O[C@H](COP(=O)(O)CP(=O)(O)OP(=O)(O)O)[C@@H](O)[C@H]1O,"P2X purinoceptor 1 (P2RX1, Homo sapiens, UniProt P51575, K136W)",calcium influx,,1 µM,reference: ionomycin response,calcium influx,96.2% and 100% and 96.4%
O=c1c(-c2ccc(O)cc2)coc2cc(O)cc(O)c12,Nuclear receptor subfamily 2 group C member 2 ligand-binding domain,SPR imaging,,600 nM,,koff,7.62e-07 s⁻¹
C[S+](CC[C@H](N)C(=O)O)C[C@H]1O[C@@H](n2cnc3c(N)ncnc32)[C@H](O)[C@@H]1O (some centres unmarked),"O-methyltransferase (Sorghum bicolor, UniProt A0A1B6PFV1)",isothermal titration calorimetry,,"concentration not given, apo protein",,ΔG of binding,-5.39 kcal/mol
CCC[S+]([O-])c1ccc2[nH]c(NC(=O)OC)nc2c1 (centres unmarked),Nuclear receptor subfamily 2 group C member 2 ligand-binding domain,SPR imaging,,600 nM,,koff,4.8e-05 s⁻¹
Cc1cn(-c2cc(NC(=O)c3ccc(C)c(Nc4nccc(-c5cccnc5)n4)c3)cc(C(F)(F)F)c2)cn1,"Oxidized purine nucleoside triphosphate hydrolase (NUDT1, Homo sapiens, UniProt P36639)",activator,,"200 µM, screen",,activity,> 200%
Cc1cc(Nc2cc(N3CCN(C)CC3)nc(Sc3ccc(NC(=O)C4CC4)cc3)n2)[nH]n1,"MAP kinase-activated protein kinase 2 (MAPKAPK2, Homo sapiens, UniProt P49137)","kinase activity, KinaseProfiler",,"0.03 µM, species human",reference: control,remaining activity,92%
CC(NC(=O)CCCc1ccc2ccc3cccc4ccc1c2c34)C(=O)NO (centres unmarked),"Histone deacetylase 8 (HDAC8, Homo sapiens, UniProt Q9BY41)",ITC,phosphate buffer,pH 7.5,,TΔS,6.2 kcal/mol
O=C(COP(=O)(O)O)[C@@H](O)[C@H](O)[C@H](O)COP(=O)(O)O,"Desmoplakin (DSP, Homo sapiens, UniProt P15924)",thermal proteome profiling,HepG2 cell lysate,"concentration not given, 57 over 37 °C",reference: compound over control,thermal stability ratio,0.467 and 0.444 and 0.7
CC1(C)Cc2c(sc(NC(=O)c3ccn[nH]3)c2C(N)=O)C(C)(C)O1,"Cystic fibrosis transmembrane conductance regulator (CFTR, Homo sapiens, UniProt P13569, F312A)",single-channel patch clamp,,"20 µM, added: ATP 2 mM",,closed time constant,293 ± 90 ms
CC1=C(/C=C/C(C)=C/C=C/C(C)=C/C=O)C(C)(C)CCC1,"Rhodopsin (RHO, Bos taurus, UniProt P02699, I189V/S144F)","retinal entry, Alexa488 FRET",lipid bicelles,"28 °C, I189V mutant",reference: wild-type rhodopsin,relative kon,1.17 ± 0.23

# A few entries again:
Structure (SMILES),target,assay,system,setting,scale,measurement,value
C[S+](CC[C@H](N)C(=O)O)C[C@H]1O[C@@H](n2cnc3c(N)ncnc32)[C@H](O)[C@@H]1O (some centres unmarked),"O-methyltransferase (Sorghum bicolor, UniProt A0A1B6PFV1)",isothermal titration calorimetry,,"concentration not given, apo protein",,ΔG of binding,-5.39 kcal/mol
O=C(COP(=O)(O)O)[C@@H](O)[C@H](O)[C@H](O)COP(=O)(O)O,"Desmoplakin (DSP, Homo sapiens, UniProt P15924)",thermal proteome profiling,HepG2 cell lysate,"concentration not given, 57 over 37 °C",reference: compound over control,thermal stability ratio,0.467 and 0.444 and 0.7
O=C1OC(c2ccccc2)=N/C1=C\c1ccc(O)cc1,"Pancreatic alpha-amylase (Homo sapiens, UniProt P04746)","inhibitor, Lineweaver-Burk",,"300 ppm, added: starch substrate",,Km,1940 µM
